Results pooled from the literature.
± gives the spread as reported.
Organism: Salmonella typhimurium

Compound | test | system | setting | how to read | measurement | value
O=NN1CCN(C2CCCC2)CC1 | mutagenicity, Ames plate incorporation | TA1537 | 150 µg/plate, 3 d, without S9, methanol | – | revertant colonies per plate | 9.3 ± 5
O=[N+]([O-])c1ccc(N2CCC(NCCC(O)c3ccc(F)c4ccccc34)CC2)c(C(F)(F)F)c1 (stereo not drawn) | SOS/umu test | TA1535/pSK1002 | 6.1e-05 mg/mL, 4 h, with 10% rat liver S9 | – | survival | 90.9%
CC(=O)N1CCC(C(=O)N2CCN3C(=O)c4cc(-c5ccccc5)ccc4NC(=O)C3C2)CC1 (stereo not drawn) | – | TA98 | 1.58 µg/plate, together with: rat liver S9 | baseline: vehicle | fold increase in revertants | 1.2
N#C[C@@]1(n2ccc(N)nc2=O)O[C@H](CO)[C@@H](O)[C@H]1O | – | TA98 | 10 µM, without S9 | – | viability | 96%
CN(N=O)c1ccc(F)cc1 | mutagenicity, Ames plate incorporation | TA100 | 5000 µg/plate, 3 d, without S9, methanol | – | revertant colonies per plate | 128 ± 12
COc1cccc(-c2n[nH]c(SCc3ccccn3)n2)c1OC | Ames preincubation | TA98 | 0.50 mg per plate, together with: rat liver S9 | – | revertant colonies per plate | 19
OC(CCN1CC=C(c2ccc(F)cc2)CC1)c1ccc(F)c2ccccc12 (stereo not drawn) | genotoxicity, SOS/umu test | TA1535/pSK1002 | 0.008 mg/mL, 4 h, without S9, lower range | – | induction factor | 0.7
CC(C)N(C)N=O | mutagenicity, Ames plate incorporation | TA100 | 1500 µg/plate, 3 d, without S9, methanol | – | revertant colonies per plate | 162 ± 4
O=[N+]([O-])c1ccc(N2CCN(CCC(O)c3ccc(F)cc3)CC2)c(C(F)(F)F)c1 (stereo not drawn) | SOS/umu test | TA1535/pSK1002 | 0.004 mg/mL, 4 h, without S9, full range | – | survival | 105%
CC(C)N(N=O)C(C)C | mutagenicity, Ames plate incorporation | TA100 | 1500 µg/plate, without S9, methanol | – | revertant colonies per plate | 150 ± 7
Fc1ccc(C2=CCNCC2)cc1 | SOS/umu test | TA1535/pSK1002 | 0.008 mg/mL, 4 h, without S9, full range | – | survival | 92.5%
Cc1cc(C(=O)NC(C)(C)COc2cccc3c2C(N)=NS(=O)(=O)N3)cc(C)n1 | Ames test, confirmatory | TA98 | 5000 µg/plate | baseline: solvent control | revertant ratio | 1.1

A few entries again:
Compound | test | system | setting | how to read | measurement | value
O=[N+]([O-])c1ccc(N2CCN(CCC(O)c3ccc(F)cc3)CC2)c(C(F)(F)F)c1 (stereo not drawn) | SOS/umu test | TA1535/pSK1002 | 0.004 mg/mL, 4 h, without S9, full range | – | survival | 105%
